Published values from different studies.
Each line is one published result; not all experiments were run side by side. Several values in a cell are separate wells, animals, samples, runs or records. ± marks the error that the study gave.
Astl: Astacin-like metalloendopeptidase (Astl, Mus musculus, UniProt Q6HA09)
Chain of UniProt Q6HA09 (whole entry, looked up): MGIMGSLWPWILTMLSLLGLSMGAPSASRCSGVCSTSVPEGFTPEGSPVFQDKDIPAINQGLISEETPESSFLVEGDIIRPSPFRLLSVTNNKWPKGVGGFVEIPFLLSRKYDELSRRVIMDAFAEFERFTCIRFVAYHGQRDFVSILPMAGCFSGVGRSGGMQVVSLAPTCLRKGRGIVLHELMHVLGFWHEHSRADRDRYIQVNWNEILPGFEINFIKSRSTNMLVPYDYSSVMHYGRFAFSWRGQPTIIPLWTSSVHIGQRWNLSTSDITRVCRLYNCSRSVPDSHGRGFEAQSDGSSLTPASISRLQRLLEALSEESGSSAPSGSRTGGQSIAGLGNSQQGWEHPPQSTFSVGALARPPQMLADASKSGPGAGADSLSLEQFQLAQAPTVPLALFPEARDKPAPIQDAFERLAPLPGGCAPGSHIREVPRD
Chain of UniProt Q16539 (whole entry, looked up): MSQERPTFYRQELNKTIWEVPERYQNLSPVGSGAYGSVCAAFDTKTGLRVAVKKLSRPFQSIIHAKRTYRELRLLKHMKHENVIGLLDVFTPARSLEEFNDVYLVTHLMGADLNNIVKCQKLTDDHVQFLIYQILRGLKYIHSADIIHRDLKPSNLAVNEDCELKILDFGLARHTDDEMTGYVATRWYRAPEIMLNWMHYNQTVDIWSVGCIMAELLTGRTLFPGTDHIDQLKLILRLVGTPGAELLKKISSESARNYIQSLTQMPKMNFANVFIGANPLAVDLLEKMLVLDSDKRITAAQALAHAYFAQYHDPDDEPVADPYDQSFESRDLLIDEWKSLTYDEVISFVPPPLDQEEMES
Chain of UniProt Q14191 (500-946, looked up): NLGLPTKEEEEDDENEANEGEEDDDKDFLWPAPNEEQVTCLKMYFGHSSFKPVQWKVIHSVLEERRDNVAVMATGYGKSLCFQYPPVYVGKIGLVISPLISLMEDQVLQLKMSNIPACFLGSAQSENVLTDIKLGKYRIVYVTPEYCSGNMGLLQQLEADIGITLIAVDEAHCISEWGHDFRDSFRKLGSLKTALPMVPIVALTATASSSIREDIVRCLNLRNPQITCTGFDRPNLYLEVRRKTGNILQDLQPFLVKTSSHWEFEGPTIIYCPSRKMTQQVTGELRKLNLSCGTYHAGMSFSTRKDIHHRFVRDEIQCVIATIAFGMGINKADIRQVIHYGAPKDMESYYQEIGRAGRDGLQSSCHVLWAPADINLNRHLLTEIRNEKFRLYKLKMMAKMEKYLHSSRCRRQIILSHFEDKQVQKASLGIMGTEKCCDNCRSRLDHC
Chain of UniProt O15393 (whole entry, looked up): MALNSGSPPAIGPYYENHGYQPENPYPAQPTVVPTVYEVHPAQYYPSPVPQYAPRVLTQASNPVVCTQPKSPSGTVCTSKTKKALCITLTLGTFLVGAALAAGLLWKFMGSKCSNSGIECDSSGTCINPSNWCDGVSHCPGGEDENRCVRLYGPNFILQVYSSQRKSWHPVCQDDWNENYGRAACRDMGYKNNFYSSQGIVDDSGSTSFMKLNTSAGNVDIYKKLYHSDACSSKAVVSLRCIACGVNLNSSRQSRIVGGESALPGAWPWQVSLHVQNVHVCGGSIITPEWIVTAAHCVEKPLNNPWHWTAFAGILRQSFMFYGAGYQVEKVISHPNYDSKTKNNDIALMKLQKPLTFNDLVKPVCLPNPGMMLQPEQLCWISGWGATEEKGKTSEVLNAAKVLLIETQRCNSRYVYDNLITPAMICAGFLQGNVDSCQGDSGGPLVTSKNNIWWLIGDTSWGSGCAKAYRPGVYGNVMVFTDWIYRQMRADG
Chain of UniProt Q86WV6 (whole entry, unmodified, looked up): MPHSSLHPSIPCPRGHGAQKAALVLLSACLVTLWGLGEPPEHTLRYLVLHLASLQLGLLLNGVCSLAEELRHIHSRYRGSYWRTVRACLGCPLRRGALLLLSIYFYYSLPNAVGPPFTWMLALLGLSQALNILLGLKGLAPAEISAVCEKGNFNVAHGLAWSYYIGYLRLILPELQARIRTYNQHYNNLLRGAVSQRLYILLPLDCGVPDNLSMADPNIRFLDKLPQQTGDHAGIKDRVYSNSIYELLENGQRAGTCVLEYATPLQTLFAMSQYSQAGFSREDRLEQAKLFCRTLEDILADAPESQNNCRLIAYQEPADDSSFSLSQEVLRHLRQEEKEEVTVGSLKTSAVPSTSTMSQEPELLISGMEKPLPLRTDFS
Chain of UniProt Q9HB29 (whole entry, looked up): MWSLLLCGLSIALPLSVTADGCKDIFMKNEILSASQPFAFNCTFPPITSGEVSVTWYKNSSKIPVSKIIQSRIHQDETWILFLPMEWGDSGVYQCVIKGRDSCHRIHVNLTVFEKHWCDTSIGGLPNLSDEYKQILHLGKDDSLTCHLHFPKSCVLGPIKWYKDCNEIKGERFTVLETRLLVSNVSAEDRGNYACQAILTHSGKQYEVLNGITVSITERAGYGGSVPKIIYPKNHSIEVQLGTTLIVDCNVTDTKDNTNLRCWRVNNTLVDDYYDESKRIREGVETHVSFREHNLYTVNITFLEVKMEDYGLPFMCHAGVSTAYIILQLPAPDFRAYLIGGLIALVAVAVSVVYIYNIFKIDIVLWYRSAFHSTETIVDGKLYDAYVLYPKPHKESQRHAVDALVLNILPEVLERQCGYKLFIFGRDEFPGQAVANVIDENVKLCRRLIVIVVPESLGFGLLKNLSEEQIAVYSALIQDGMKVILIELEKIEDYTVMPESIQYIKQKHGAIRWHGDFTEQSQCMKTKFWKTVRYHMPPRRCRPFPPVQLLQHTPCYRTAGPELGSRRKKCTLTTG
Chain of UniProt P45983 (whole entry, looked up): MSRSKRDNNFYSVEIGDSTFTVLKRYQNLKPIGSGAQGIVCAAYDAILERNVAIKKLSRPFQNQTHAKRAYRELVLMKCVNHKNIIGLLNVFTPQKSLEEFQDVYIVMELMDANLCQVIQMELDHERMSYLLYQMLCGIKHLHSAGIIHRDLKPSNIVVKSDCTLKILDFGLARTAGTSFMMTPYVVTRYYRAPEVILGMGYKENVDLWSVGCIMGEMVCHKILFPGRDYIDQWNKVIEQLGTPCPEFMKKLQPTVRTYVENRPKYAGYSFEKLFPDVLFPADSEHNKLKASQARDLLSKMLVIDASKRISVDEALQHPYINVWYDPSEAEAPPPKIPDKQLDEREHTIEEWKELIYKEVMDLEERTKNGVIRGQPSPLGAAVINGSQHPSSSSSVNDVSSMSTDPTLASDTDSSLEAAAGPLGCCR

Compound | target or system | assay | system | setting | how to read | quantity | result
Nc1ncc(-c2cc(-c3cnn(CC(F)(F)F)c3)ncc2F)nc1C(=O)NC1CNCC(F)C1 (stereo not shown) | ACVR2A | KINOMEscan | – | 1 µM | baseline: DMSO control | remaining binding | 93%
COC1CN([C@H]2CC[C@H]([C@@]3(C)Oc4c(Cl)cc(C(=O)NCc5c(SC)cc(C)[nH]c5=O)c(C)c4O3)CC2)C1 | – | RNA-seq, measured: CBS | human, whole blood | dose not given, 24 h | baseline: pretreatment baseline | log2 fold change | 1.06
CC(C)[C@@H]1NC(=O)[C@H](Cc2ccccc2)NC(=O)CSC[C@@H](C(N)=O)NC(=O)[C@H](CCC(=O)O)NC(=O)[C@H](CO)NC(=O)[C@H](Cc2c[nH]c3cccc(Cl)c23)NC(=O)[C@H](C2CCCCC2)NC(=O)[C@H](C(C)C)NC(=O)[C@H](Cc2ccc(O)cc2)NC(=O)[C@H](CC(=O)O)NC(=O)[C@H](Cc2c[nH]c3ccccc23)NC(=O)[C@H](Cc2ccc(N)nc2)NC(=O)[C@H](Cc2c[nH]c3ccc(Cl)cc23)NC(=O)[C@H](CCC(=O)O)NC1=O | Interleukin-1 receptor-like 2 (IL1RL2, Homo sapiens, UniProt Q9HB29) | IL-8 release, antagonist | A-431 | 3.2 µM, 18 h, together with: IL-36γ | baseline: untreated | remaining activity | 86.2%
O=C(CCN(Cc1ccc(Cl)cc1F)Cc1ccc(Cl)cc1F)NO | Astl | enzyme activity, inhibitor, fluorogenic | – | 5 µM | – | remaining activity | 14 ± 2%
CN(Cc1cc(C2CC2)on1)C(=O)c1cccc(-c2ccc3c(c2)CCO3)c1 | acetoacetyl-CoA synthetase (Cryptococcus neoformans) | enzyme activity, inhibitor | – | 62.5 µM | – | remaining activity | 100%
Cc1ncsc1-c1ccc(C(C)NC(=O)C2CC(O)CN2C(=O)C(NC(=O)CCCCCCCCCCN2CCCC(Nc3ncc(Cl)c(Nc4ccccc4S(=O)(=O)C(C)C)n3)C2)C(C)(C)C)cc1 (stereo not shown) | 22Rv1 | RNA-seq, measured: RILPL1 mRNA | – | concentration not given | baseline: DMSO | log2 fold change | -1.15
O=C(CCN(Cc1cccc(C(=O)O)c1)Cc1cccc(C(=O)O)c1)NO | Astl | enzyme activity, inhibitor, fluorogenic | – | 5 µM | – | remaining activity | 26 ± 3%
COC(=O)[C@@]1(C)C=C(C(=O)Nc2cccc(C(=O)Nc3ccc(Nc4nccc(-c5cccnc5)n4)c(C)c3)c2)C(=O)CC1 | Mitogen-activated protein kinase 14 (MAPK14, Homo sapiens, UniProt Q16539) | enzyme activity, inhibitor | – | 400 µM, unit not given | baseline: vehicle | remaining activity | 0.145 and 0.11 and 0.12
C[C@](C(=O)NC1CCOCC1)(c1cncnc1)N(C(=O)[C@H](F)Cl)c1ccc(OC(F)(F)Cl)cc1 | Transmembrane protease serine 2 (TMPRSS2, Homo sapiens, UniProt O15393) | enzyme activity, inhibitor | – | 10 µM | – | remaining activity | 101%
O=C(CCN(Cc1ccc2c(c1)OCO2)Cc1ccc2c(c1)OCO2)NO | Astl | enzyme activity, inhibitor, fluorogenic | – | 5 µM | – | remaining activity | 16 ± 3%
COc1ccccc1-c1ccncc1C(=O)Nc1nnc(OCc2ccc(Cl)cc2)s1 | Bifunctional 3'-5' exonuclease/ATP-dependent helicase WRN, residues 500-946 (WRN, Homo sapiens, UniProt Q14191) | ATPase activity, ADP-Glo | – | 0.06 µM | baseline: 0 µM cpd | remaining activity | 109%
O=C(NCC[C@H](NC(=O)c1ncc(-c2ccccc2)o1)c1nc2ccccc2[nH]1)c1ccc([N+](=O)[O-])o1 | Stimulator of interferon genes protein (STING1, Homo sapiens, UniProt Q86WV6, H232R) | reporter gene, inhibitor | THP1-Dual KI-hSTING-R232 | 24 h, 1 h preincubation, together with: diABZI 500 nM | – | EC50 | 10.5 µM
Cc1cc(NC(=O)c2cccc(NC(=O)/C(C#N)=C/C(C)(C)C)c2)ccc1Nc1nccc(-c2cccnc2)n1 | Mitogen-activated protein kinase 8, phosphorylated (MAPK8, Homo sapiens, UniProt P45983) | enzyme activity after dialysis, inhibitor | – | 10 µM, 2 days, unit not given | baseline: no inhibitor | remaining activity | 0.403

Some of these lines once more:
Compound | target or system | assay | system | setting | how to read | quantity | result
Cc1ncsc1-c1ccc(C(C)NC(=O)C2CC(O)CN2C(=O)C(NC(=O)CCCCCCCCCCN2CCCC(Nc3ncc(Cl)c(Nc4ccccc4S(=O)(=O)C(C)C)n3)C2)C(C)(C)C)cc1 (stereo not shown) | 22Rv1 | RNA-seq, measured: RILPL1 mRNA | – | concentration not given | baseline: DMSO | log2 fold change | -1.15
O=C(CCN(Cc1cccc(C(=O)O)c1)Cc1cccc(C(=O)O)c1)NO | Astl | enzyme activity, inhibitor, fluorogenic | – | 5 µM | – | remaining activity | 26 ± 3%
